Results pooled from the literature.
Lines come from different studies, so protocols differ. ± gives the spread as reported.

Oc1cccc2[nH]c(/C(=N/OCc3ccccc3)c3cc4cccc(O)c4o3)nc12  IC50 (HCT-15 (KRAS G13D); cell viability, CellTiter-Glo; 72 h): 25.6 ± 3.7 µM
CC(C)c1ccc(C[C@H](C)C(=O)N[C@@H]2O[C@H](CO)[C@@H](O)[C@H](O)[C@H]2O)cc1  IC50 (L1210; cell growth or viability; 48 h): > 250 µM
COc1cc(-c2nc3ccc(C(=O)NCCCN4CCN(c5ccccn5)CC4)cc3n2C2CCC2)cc(OC)c1OC  IC50 (293 T-BRE-Luc; reporter gene, inhibitor; 6 h, together with: BMP7-induced BMP7 500 ng/mL): 1.09 µM
CC(C)c1cccc(C(C)C)c1N1CCN(c2c(C(C)C)cccc2C(C)C)C1=[Se].[Cl][Ag]  IC50 (A2780 ADR; MTT; 72 h): 0.3 ± 0.04 µM
C=C(CO)C(=O)O[C@H]1CC(=C)[C@@H]2C[C@H](O)[C@](O)(CCl)[C@@H]2[C@H]2OC(=O)C(=C)C12 (some centres unmarked)  IC50 (HEKa; cell growth or viability): 2.5 µg/mL
CCCC(CCC)C(=O)[O][Pt]([NH2])([NH2])([Cl])([Cl])[O]C(=O)C(Cl)Cl  IC50 (PSN1; cell growth or viability, MTT; 72 h): 0.61 µM
CC(C)=CCOc1ccc(-c2coc3cc4c(c(O)c3c2=O)C=CC(C)(C)O4)cc1  IC50 (MDA-MB-231, Huh-7, KKU100, NHDF cells; cell viability, MTT; 24 h): > 100 µM
CC(C)Cc1ccc(C(C)C(=O)[O][Pt]([NH2])([NH2])([Cl])([Cl])[O]C(=O)C(Cl)Cl)cc1 (centres unmarked)  IC50 (PSN1; cell growth or viability, MTT; 72 h): 0.08 µM
CCC(C(=O)O)C1CCC(C)C(C(C)C(O)C(C)C(=O)C(CC)C2OC3(C=CC(NCc4cn(Cc5ccccc5)nn4)C4(CCC(C)(C5CCC(O)(CC)C(C)O5)O4)O3)C(C)CC2C)O1 (centres unmarked)  IC50 (HMLER CD24low/CD44high; cell proliferation; 72 h): 0.09 ± 0.02 µM
Cc1cc(C)c(N=[C](NCc2cccc(N)c2)[AuH][Cl])c(C)c1  IC50 (OVCAR-3; cell growth or viability): > 100 µM
[Cl][Cu-][c]1n(-c2c(C(c3ccccc3)c3ccccc3)cc(C(c3ccccc3)c3ccccc3)cc2C(c2ccccc2)c2ccccc2)c2c([n+]1-c1c(C(c3ccccc3)c3ccccc3)cc(C(c3ccccc3)c3ccccc3)cc1C(c1ccccc1)c1ccccc1)-c1cccc3cccc-2c13  IC50 (PSN1; cell growth or viability, MTT; 72 h): > 50 µM
COC(C)(C)C(O)COc1c2ccoc2cc2oc(=O)ccc12 (centres unmarked)  IC50 (L5178Y; cell growth or viability, MTT; 72 h): 35.9 µM
CC(C)c1cccc(C(C)C)c1-n1c(Cl)c(Cl)n(-c2c(C(C)C)cccc2C(C)C)c1=[Se].[Cl][Au]  IC50 (LoVo-OXP (oxaliplatin-resistant); MTT; 72 h): 4.5 ± 0.9 µM
CC(=O)OC[C@H]1O[C@@H](NC(=O)NC(=O)/C=C/c2ccc(C(C)C)cc2)[C@H](OC(C)=O)[C@@H](OC(C)=O)[C@@H]1OC(C)=O  IC50 (L1210; cell growth or viability; 48 h): 24 µM
COc1cc(C(=O)c2[nH]c(N)nc2-c2cccs2)cc(OC)c1OC  IC50 (EMT6/AR1; cell growth or viability, SRB): 2.43 µM
COC(=O)[C@@H]1[C@@H](OC)[C@H](OC(=O)c2cc(OC)c(OC)c(OC)c2)C[C@@H]2CN3CC[C@]4(O[C@@H]3C(=O)[C@@H]21)C(=O)Nc1cc(OC)c(-c2ccc(C(F)(F)F)cc2)cc14  IC50 (SU-DHL-4; cell growth or viability, trypan blue; 72 h): 1.14 µM
CC(C)(C)c1cc(CN(Cc2ccccn2)Cc2ccccn2)c(O)c(CN(Cc2ccccn2)Cc2ccccn2)c1  IC50 (CHO-K1; cytotoxicity; 72 h): 78 ± 2 µM
[Cl][Au].[Se]=c1n(C23CC4CC(CC(C4)C2)C3)ccn1C12CC3CC(CC(C3)C1)C2  IC50 (A2780 ADR; MTT; 72 h): 0.3 ± 0.1 µM
CCOc1ccccc1-c1ccc2[nH]c3ncc(/C=C/c4ccccc4)cc3c2c1  IC50 (parental Ba/F3 (IL-3 dependent); cell proliferation, [3H]-thymidine incorporation): 3.8 µM
Cc1sc2c(c1C)C(c1ccc(Cl)cc1)=N[C@@H](CC(=O)NCCCCCCCCC(=O)N1CCN(C(=O)c3cc(Cc4n[nH]c(=O)c5ccccc45)ccc3F)CC1)c1nnc(C)n1-2  IC50 (SU-DHL-5; cell growth or viability, ATP luminescence; 72 h): 0.015 µM
Cc1cc(C)c([N+]#[C][Pd-2]([Cl])([Cl])[C]#[N+]c2c(C)cc(C)cc2C)c(C)c1  IC50 (OVCAR-3; cell growth or viability): > 100 µM
CC(C)c1cccc(C(C)C)c1-n1ccn(-c2c(C(C)C)cccc2C(C)C)c1=[Se].[Cl][Ag]  IC50 (PSN1; cell growth or viability, MTT; 72 h): 7 µM
S=C(S)NCc1cccnc1  IC50 (KG-1a; cell growth or viability, MTT; 72 h): 2 µM
[NH2][Pt]1([NH2])([Cl])([O]C(=O)C(Cl)Cl)[O]C(=O)C2(CC(=O)C2)C(=O)[O]1  IC50 (SGC-7901/CDDP cisplatin-resistant; cell viability, MTT; 48 h): 92.5 ± 2.56 µM
N#Cc1c(-c2cccs2)cc(-c2cccc3ccccc23)n2c(Cc3ccccc3)nnc12  IC50 (RKOp27; cell growth or viability, MTT; 72 h): 0.736 µM
Cc1nc(Nc2ncc(C(=O)Nc3c(C)cccc3Cl)s2)cc(N2CCN(CCOC(=O)[C@@H](N)CS)CC2)n1  IC50 (BV-173; cell growth or viability, MTT; 72 h): 0.00133 µM
O=c1ccn([C@@H]2O[C@H](CSSC[C@H]3O[C@@H](n4ccc(=O)[nH]c4=O)[C@H](O)[C@@H](F)[C@@H]3O)[C@@H](O)[C@H](F)[C@H]2O)c(=O)[nH]1  IC50 (L1210; cell growth or viability): 302 µM
c1ccc(-n2c(-c3cccs3)nc3c4ccccc4c4ccccc4c32)cc1  IC50 (human foreskin fibroblasts HFF; cell viability, colorimetric; 72 h): > 1000 µg/mL
O=C(COc1ccc(-c2ccccc2)cc1)N[C@@H]1O[C@H](CO)[C@@H](O)[C@H](O)[C@H]1O  IC50 (L1210; cell growth or viability; 48 h): > 250 µM
Cc1ccc(CC(=O)N(CCCn2ccnc2)c2nc3ccccc3s2)c(C)c1  IC50 (SW620 cells; colony formation): 8.34 µM
O=[N+]([O-])c1ccc(/N=N/c2ccc(O)c(O)c2)cc1  IC50 (patient-derived fibroblasts; cell growth, PrestoBlue; 72 h): 9.9 µM
C/C1=C\CC[C@@]2(C)O[C@H]2[C@H]2OC(=O)[C@@H](CSC(=S)N3CCCC3)[C@@H]2CC1  IC50 (KG-1a; cell growth or viability, MTT; 72 h): 11.7 µM
CN1CCCNC(=O)c2cccc(c2)C(=O)NCCCN(C)CCCNc2cccc3c2C(=O)c2cccc(c2C3=O)NCCC1  IC50 (HSC-2; cell growth or viability, CCK-8; 48 h): 1 µM
Cc1c(C)n(-c2c(C(C)C)cccc2C(C)C)c(=[Se])n1-c1c(C(C)C)cccc1C(C)C.[Cl][Ag]  IC50 (LoVo-OXP (oxaliplatin-resistant); MTT; 72 h): 0.6 ± 0.2 µM
COc1ccc2cc([C@H](C)C(=O)[O][Pt-2]34([O]C(=O)[C@@H](C)c5ccc6cc(OC)ccc6c5)([NH2+][C@@H]5CCCC[C@H]5[NH2+]3)[O]C(=O)C(=O)[O]4)ccc2c1  IC50 (LO-2 normal liver; cell growth, MTT; 48 h): 15.3 ± 2.5 µM
CC1CCc2c(c(-c3c[nH]nc3C(F)(F)F)nc3ccc4[nH]ncc4c23)C1 (centres unmarked)  IC50 (Molm13 resistant FLT3-ITD D835Y; cell growth; 72 h): 0.0207 µM
O=C(Cc1ccc2ccccc2c1)N[C@H](Cc1ccccc1)C(=O)N[C@H](Cc1ccc(OP(=O)(O)O)cc1)C(=O)N[C@H](Cc1ccccc1)C(=O)N[C@H](Cc1ccc(OP(=O)(O)O)cc1)C(=O)O  IC50 (SAOS-2; cell growth or viability, MTT): 144 µg/mL
CC(C)c1cccc(C(C)C)c1[N+]#[C][Pd-]([Cl])([Cl])=[C](Nc1ccc(CN[C](NC(C)(C)C)=[Au][Cl])cc1)Nc1c(C(C)C)cccc1C(C)C  IC50 (OVCAR-3; cell growth or viability): > 100 µM
COc1ccc(-c2c(O)oc3c(CC=C(C)C)c(O)cc(O)c3c2=O)cc1  IC50 (J774.2; NO release, inhibitor; LPS-stimulated): 23.3 µg/mL
Cc1cc(C)c([N+]#[C][Pt-]([Cl])([Cl])=[C](Nc2ccc(CN[C](NC(C)(C)C)=[Au][Cl])cc2)Nc2c(C)cc(C)cc2C)c(C)c1  IC50 (OVCAR-3; cell growth or viability): > 100 µM
CCNC(=O)OCc1c(COC(=O)NCC)c(-c2ccc(OC)cc2)n2c1Cc1ccccc1-2  IC50 (PC-9; cell growth or viability, resazurin; 72 h): 82.7 µM

A few entries again:
CC(C)Cc1ccc(C(C)C(=O)[O][Pt]([NH2])([NH2])([Cl])([Cl])[O]C(=O)C(Cl)Cl)cc1 (centres unmarked)  IC50 (PSN1; cell growth or viability, MTT; 72 h): 0.08 µM
CCC(C(=O)O)C1CCC(C)C(C(C)C(O)C(C)C(=O)C(CC)C2OC3(C=CC(NCc4cn(Cc5ccccc5)nn4)C4(CCC(C)(C5CCC(O)(CC)C(C)O5)O4)O3)C(C)CC2C)O1 (centres unmarked)  IC50 (HMLER CD24low/CD44high; cell proliferation; 72 h): 0.09 ± 0.02 µM
Cc1cc(C)c(N=[C](NCc2cccc(N)c2)[AuH][Cl])c(C)c1  IC50 (OVCAR-3; cell growth or viability): > 100 µM
[Cl][Cu-][c]1n(-c2c(C(c3ccccc3)c3ccccc3)cc(C(c3ccccc3)c3ccccc3)cc2C(c2ccccc2)c2ccccc2)c2c([n+]1-c1c(C(c3ccccc3)c3ccccc3)cc(C(c3ccccc3)c3ccccc3)cc1C(c1ccccc1)c1ccccc1)-c1cccc3cccc-2c13  IC50 (PSN1; cell growth or viability, MTT; 72 h): > 50 µM
